Measurements collected from several papers.
Compare with care: the assays were run in different laboratories.
Target: Tyrosine-protein phosphatase non-receptor type 1 (PTPN1, Homo sapiens, UniProt P18031)
Observed: enzyme activity
Action: inhibitor
Method: absorbance
One construct used (P18031 1-435): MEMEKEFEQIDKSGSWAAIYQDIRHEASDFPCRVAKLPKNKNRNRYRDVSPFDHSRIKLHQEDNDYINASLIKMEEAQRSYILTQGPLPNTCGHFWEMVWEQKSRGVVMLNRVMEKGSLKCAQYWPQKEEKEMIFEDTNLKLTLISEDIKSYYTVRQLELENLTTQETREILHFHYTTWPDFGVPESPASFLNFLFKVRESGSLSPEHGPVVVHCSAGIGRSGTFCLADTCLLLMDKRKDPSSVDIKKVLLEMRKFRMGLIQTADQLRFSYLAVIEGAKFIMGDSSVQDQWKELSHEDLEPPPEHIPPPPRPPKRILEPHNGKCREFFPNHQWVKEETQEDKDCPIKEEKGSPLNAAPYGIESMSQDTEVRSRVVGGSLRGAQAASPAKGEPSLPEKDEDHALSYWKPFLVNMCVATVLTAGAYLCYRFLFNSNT

SMILES | pH | IC50
O=C1CC(c2ccc(OC3OC(CO)C(O)C(O)C3O)cc2)Oc2cc(O)cc(O)c21 (stereo not drawn) |  | > 100 µM
CC(C)=CCc1cc(C2CC(=O)c3c(O)cc(O)cc3O2)c2c(c1O)C=CC(C)(C)O2 (stereo not drawn) |  | 26.6 µM
C=CC1C(OC2OC(CO)C(O)C(O)C2O)OC=C(C(=O)OC)C1CC(=O)O (stereo not drawn) |  | 70.2 µM
CC1(C)C=Cc2c(cc(O)c3c(=O)cc(-c4ccc(O)cc4O)oc23)O1 |  | 0.79 µM
CC(C)=CCc1c(O)cc(-c2cc3ccc(O)c(CC=C(C)C)c3o2)cc1O |  | 67.9 µM
CC(C)=CCC[C@](C)(O)[C@H]1CC[C@]2(C)[C@@H]1[C@H](O)C[C@@H]1[C@@]3(C)CC[C@H](O)C(C)(C)[C@@H]3[C@@H](O)C[C@]12C | pH 7.4 | > 100 µM
CC(C)=CCCC(C)=CCCC(C)=CCc1c(O)cc(O)c(CC=C(C)C)c1-c1cc2ccc(O)cc2o1 |  | 8.92 µM
CC(C)=CCC[C@](C)(O)[C@H]1CC[C@]2(C)[C@@H]1[C@H](O)C[C@@H]1[C@@]3(C)CC[C@H](O)C(C)(C)[C@@H]3CC[C@]12C |  | 13.4 µM
O=C1O[C@H]([C@H](O)c2ccc(O)cc2)c2cccc(O)c21 |  | > 100 µM
CC(C)(O)C1=CCC(C2CC[C@]3(C)C2CCC2[C@@]4(C)CCC(O)C(C)(C)C4CC[C@]23C)C1=O (stereo partly drawn) |  | 14.5 µM
CC(CO)C1CCC2(C)C3=CCC4C5(CCC(OC5=O)C4(C)C)C3=CCC12C (stereo not drawn) |  | > 34.7 µM
COc1cc(O)cc(C=Cc2ccc(O)cc2)c1CC=C(C)CCC=C(C)C |  | 17.6 µM
C=CC1C(OC2OC(CO)C(O)C(O)C2O)OC=C(C(=O)OC)C1CC1CC(=O)CC(CCc2ccc(O)cc2)O1 (stereo not drawn) |  | > 100 µM
COc1cc(OC2OC(COC3OC(CO)C(O)C(OC4OC(COC5OC(CO)C(O)C(O)C5O)C(O)C(O)C4O)C3O)C(O)C(O)C2O)c2c(O)c3c(=O)cc(C)oc3cc2c1 (stereo not drawn) |  | > 100 µM
CC1(C)C=Cc2c(ccc3c2O[C@@H](c2ccc(O)cc2O)CC3)O1 |  | > 100 µM
C[C@@H]1O[C@@H](O[C@H]2C(=O)c3c(O)cc(O)cc3O[C@@H]2c2ccc(O)cc2)[C@H](O)[C@H](O)[C@H]1O |  | 2.39 µM
O=C1O[C@H](c2ccc(O)cc2)Cc2cccc(O)c21 |  | > 100 µM
COc1cc(O)cc(-c2cc3ccc(O)cc3o2)c1CC=C(C)CCC=C(C)CCC=C(C)C |  | 7.26 µM
COc1cc(OC2OC(COC3OC(CO)C(O)C(O)C3O)C(O)C(O)C2O)c2c(O)c3c(=O)cc(C)oc3cc2c1 (stereo not drawn) |  | > 100 µM
CC(C)=CCc1c(O)cc(O)c2c1O[C@H](c1ccccc1)[C@@H](O)C2=O |  | 3.52 µM
CC1=CC(=O)CC(C)(C)C1(O)C=CC(C)OC1OC(CO)C(O)C(O)C1O (stereo not drawn) |  | > 100 µM

Repeated from above:
SMILES | pH | IC50
COc1cc(O)cc(-c2cc3ccc(O)cc3o2)c1CC=C(C)CCC=C(C)CCC=C(C)C |  | 7.26 µM
COc1cc(OC2OC(COC3OC(CO)C(O)C(O)C3O)C(O)C(O)C2O)c2c(O)c3c(=O)cc(C)oc3cc2c1 (stereo not drawn) |  | > 100 µM
CC(C)=CCc1c(O)cc(O)c2c1O[C@H](c1ccccc1)[C@@H](O)C2=O |  | 3.52 µM
